Assay results of several laboratories.
“And” joins repeats or separate records; there may be more than shown.
Target: Dual specificity mitogen-activated protein kinase kinase 2 (MAP2K2, Homo sapiens, UniProt P36507)

Structure (SMILES) | test | conditions | scale | measurement | result
Cc1ccc(-c2c(/C=C(\C#N)C(=O)NC(C)C)n(CCCO)c3ncnc(N)c23)cc1 | cell-free assay, competition with immobilised ligand | 1 µM |  | remaining binding | 71%
NC(=O)[C@@H](O)C[C@H]1CCc2sc3ncnc(O[C@H]4CC[C@H](N5CCOCC5)CC4)c3c21 | enzyme activity, inhibitor | 10 µM |  | inhibition | 2%
C=CC(=O)Nc1cccc(-c2cnc3[nH]cc(C(=O)NC(C)(C)C)c3n2)c1 | kinase activity | 0.1 µM |  | inhibition | 6% and 5%
O=C(Cc1ccc(OCc2ccccc2)cc1)NC1(C(=O)O)CCN(C(=O)c2ccc(-c3cccc(Cl)c3)cc2)CC1 | enzyme activity, inhibitor | 10 µM |  | activity vs control | 106%
Cc1c[nH]c2nccc(-c3ccc(C(=O)N[C@@H]4c5c(F)cc(C(F)F)cc5C[C@@H]4O)cn3)c12 | binding, competition with immobilised ligand | 3 µM |  | remaining binding | 1.1%
CC(C)=CC1OC(C)(C)C2C=C3C(=O)C(Cl)=CC(O)C3C3C(O)C4OC4C(=O)C132 (stereo not shown) | cell-free assay, competition with immobilised ligand | 10 µM |  | remaining binding | 61%
CN1CCN(Cc2ccc(NC(=O)c3cccc(C#Cc4cnc(N)c5ncccc45)c3)cc2C(F)(F)F)CC1 | cell-free assay, competition with immobilised ligand | 0.5 µM |  | remaining binding | 71%
C=C1CCCCCCCCCC(CO)C1=O (stereo not shown) | cell-free assay, competition with immobilised ligand | 10 µM |  | remaining binding | 84%
CNC(=O)C1CCN(c2cc(C)c(F)cc2NC(=O)c2ccc(-c3cc(O)ccc3C)c(C)c2)CC1 | binding, competition with immobilised ligand | 1 µM |  | remaining binding | 81%
CN1CC[C@@H](COc2cnc(C#N)cc2-c2ccn3nc(NC(=O)C4CC4)cc3c2)C1 | enzyme activity, inhibitor | 1 µM |  | inhibition | 3%
Nc1ncc(-c2cc(-c3cnn(CC(F)(F)F)c3)ncc2F)nc1C(=O)NC1CNCC(F)C1 (stereo not shown) | enzyme activity | 1 µM | relative to: DMSO control | remaining activity | 101%
Cc1cccc(O[C@H]2CCC[C@@H](C(C)CNCc3ccncc3)C2)c1 (relative stereo) | enzyme activity, inhibitor | 10 µM |  | inhibition | -14%
Nc1ncc2c(n1)-c1c([nH]c3ccc(C4=CCOCC4)cc13)CCC2 | binding, competition with immobilised ligand | 1 µM |  | remaining binding | 100%
Cc1nc2c(F)cc(-c3nc(Nc4ccc(CNC(=O)CCCCCCC(=O)NO)cc4)ncc3F)cc2n1C(C)C | enzyme activity, inhibitor | 1 µM |  | inhibition | 57%
COc1cc(Nc2nc(C)cc(-c3cnn4nc(OC)ccc34)n2)cc(C(F)(F)F)c1 | inhibitor | 1 µM, MEK2 | relative to: control | remaining activity | 77%
C=CC(=O)N1CCc2ccc(-n3c(=O)ccc4cnc5ccc(-c6cnn(C)c6)cc5c43)cc21 | KINOMEscan | 1 µM | relative to: DMSO control | remaining binding | 90%
